Published values pooled from the literature.
Each line is one published result; not all experiments were run side by side.
Target: Muscarinic acetylcholine receptor M3 (CHRM3, Homo sapiens, UniProt P20309)
Sequence of UniProt P20309 (whole entry, looked up): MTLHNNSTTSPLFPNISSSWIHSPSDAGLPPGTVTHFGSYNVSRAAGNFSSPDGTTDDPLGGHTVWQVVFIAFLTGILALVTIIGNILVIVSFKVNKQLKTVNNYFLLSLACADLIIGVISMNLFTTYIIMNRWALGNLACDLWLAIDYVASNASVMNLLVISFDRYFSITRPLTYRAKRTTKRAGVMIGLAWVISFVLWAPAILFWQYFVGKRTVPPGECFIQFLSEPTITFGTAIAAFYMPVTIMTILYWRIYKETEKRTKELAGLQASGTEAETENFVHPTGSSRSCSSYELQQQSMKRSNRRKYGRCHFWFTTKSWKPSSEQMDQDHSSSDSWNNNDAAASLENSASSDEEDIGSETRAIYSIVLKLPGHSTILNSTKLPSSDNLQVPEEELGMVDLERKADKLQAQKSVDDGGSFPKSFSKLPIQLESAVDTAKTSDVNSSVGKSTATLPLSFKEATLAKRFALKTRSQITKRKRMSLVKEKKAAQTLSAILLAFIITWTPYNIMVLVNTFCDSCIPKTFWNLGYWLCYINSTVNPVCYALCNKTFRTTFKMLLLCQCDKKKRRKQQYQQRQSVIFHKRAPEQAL

`CCS(=O)(=O)c1nc(S(=O)(=O)c2ccccc2Cl)c(N2CCN(C)C(=O)[C@H]2C)s1` gave an inhibition of 1.17% (10 µM).
`O=C(NO)c1ccc(CN2CCCCc3ccccc32)c(F)c1` has an inhibition of -38.1% (radioligand binding, radioligand displacement; 10 µM).
`CN(C(=O)n1cnc(-c2ccc[n+]([O-])c2)c1)C1CCCCC1` gave an inhibition of -8.73% (receptor binding; 10 µM, subtype M3).
For `O=C(CCNC(=O)CNC(=O)CC(c1ccccc1)(c1ccccc1)c1ccccc1)NCC1CCN(Cc2ccc(F)cc2)CC1`, the selectivity ratio was 0.42 ([3H]N-methylscopolamine binding; baseline: IC50 M2 over M3).
`CCN1/C(=C/C(C)=O)Sc2ccc(F)cc21` has an inhibition of 0% (10 µM).
`O=C(CCNC(=O)CNC(=O)CC(c1ccccc1)(c1ccccc1)c1ccccc1)NC[C@H]1CCCN(Cc2ccc(F)cc2)C1` has a selectivity ratio of 34.2 ([3H]N-methylscopolamine binding; baseline: IC50 M2 over M3).
For `CN1CCC(CNc2ccc3ncc(-c4cccc(OC(F)(F)F)c4)n3n2)CC1`, the response was greater than 50% (cell-based; 10 µM; baseline: control).
The Hill coefficient of `C[N+]1(C)CCC(OC(=O)C(c2ccccc2)c2ccccc2)CC1.[I-]` is reported as 1.2 (binding, antagonist, radioligand binding).
`OCCCN1CC[C@@H]2C[C@H]1c1cc(-c3ccc(C(F)(F)F)cc3)ccc12` gave an inhibition of less than 50% (radioligand binding, PDSP competition binding; 10 µM).
